Assay results from different studies.
Each line is one published result; not all experiments were run side by side. Values joined by “and” are separate records of one study, mostly repeats; a detail may differ. ± gives the spread as reported.

Structure (SMILES) | tested on | test | system | setting | scale | quantity | value
CNS(=O)(=O)Nc1nccc(Cc2c(C)c3ccc(Oc4ncccc4F)cc3oc2=O)c1F | M059K | cell viability, CellTiter-Glo | – | 7 days | – | IC50 | > 1 µM
C[C@@H]1CC[C@@H]([C@](O)(CNCc2ccccc2F)COCc2ccccc2)[C@H](OCc2ccccc2)C1 | MDA-MB-231 | cell growth or viability, MTT | – | 30 µM, 72 h | – | inhibition | 93.8%
C[n+]1cc(NC(=O)c2ccc3ccc4ccc(C(=O)Nc5cc6ccccc6[n+](C)c5)nc4c3n2)cc2ccccc21 | MYC promoter parallel G-quadruplex DNA | UV melting | – | 3 µM, 10 mM potassium, together with: DNA 3 µM | – | delta Tm | 4.3 °C
COc1cccc(OC)c1-c1cc(C(=O)NC2(C(=O)O)C3CC4CC(C3)CC2C4)nn1-c1ccc(C(=O)NCCNC(=O)[C@H](CCCCNC(=O)[C@H](CC(C)C)NC(=O)C2OC2C(=O)O)NC(=O)CN2CCN(CC(=O)[O-])CCN(CC(=O)[O-])CCN(CC(=O)[O-])CC2)cc1C(C)C.[177Lu+3] (mixture of isomers) | HT-29 | – | – | 240 min, 4 h | relative to: added activity | internalized fraction | 2.08 ± 0.11%
CC(C)c1ccc(N(C)c2ccc3c(c2)OCC[C@H]3CNc2cnccc2C(=O)O)cc1 | ONS-76 | cell viability, CellTiter-Glo | – | 7 days | – | IC50 | ≥ 10 µM
Fc1cncc(-c2ccc3[nH]c4ncnc(N[C@H]5CC[C@H](N6CCOCC6)CC5)c4c3c2)c1 | OCI-Ly3 | – | – | concentration not given | – | STAT3 phosphorylation and IL-6 secretion | decreased
CC(C)(C)n1cc(CN(Cc2cn(CC(=O)O)nn2)Cc2cn(C(C)(C)C)nn2)nn1 | OVCAR-5, HPG-incorporated | live-cell CuAAC, LC-ESI-MS/MS | cytosolic proteins | concentration not given, 10 min, suspended cells, scraper-detached | – | amount of labelled product | 1.07 pg/µg protein and 1.15 pg/µg protein and 1.06 pg/µg protein
CCN(C(=O)c1cc(F)ccc1Oc1nncnc1N1CCC2(C1)CN([C@H](CCCN(C)CCOC)C(C)C)C2)C(C)C | NCI-H292 | cell growth or viability | – | 72 h | – | GI50 | > 10 µM
CCN(CC)CC(=O)Nc1cccc(-n2cc(-c3ccc4ccc(-c5cn(-c6cccc(NC(=O)CN(CC)CC)c6)nn5)cc4c3)nn2)c1 | RCC4 | PCR angiogenesis array, measured: CXCL1 | – | 5 x IC50, 2 h, normoxia | relative to: untreated | fold regulation | 1.08
COC(=O)c1cc(NC2=NC(=O)C(=Cc3ccc(N(C)C)cc3)S2)ccc1OC(C)=O | MCF7 | GC-MS, measured: Tyrosine | – | 1 µM | relative to: DMSO | metabolite level | -1.48 fold change
Cc1ncsc1-c1ccc(C(C)NC(=O)C2CC(O)CN2C(=O)C(NC(=O)CCCCCCCCCCN2CCCC(Nc3ncc(Cl)c(Nc4ccccc4S(=O)(=O)C(C)C)n3)C2)C(C)(C)C)cc1 (centres unmarked) | 22Rv1 | RNA-seq, measured: ZNF646 mRNA | – | concentration not given | relative to: DMSO | log2 fold change | -2.14
CC(C)(C)c1cc(-c2ccc3cccnc3n2)nc(-c2ccc3cccnc3n2)c1.[Cl-].[Cl-].[Ru+2].c1ccc2cc3nc4c5cccnc5c5ncccc5c4nc3cc2c1 | A-375 | cytotoxicity, resazurin | – | dark | – | EC50 | 13.4 µM
CC(=O)OC[C@H]1O[C@@H](n2cc(CSc3nc4ccccc4n3Cc3cn([C@@H]4O[C@H](COC(C)=O)[C@@H](OC(C)=O)C(OC(C)=O)[C@H]4OC(C)=O)nn3)nn2)[C@H](OC(C)=O)C(OC(C)=O)[C@@H]1OC(C)=O (stereo in doubt) | MDA-MB-231 | MTT | – | 500 ppm | – | cytotoxicity | 92.5%
CCCCCCCCCCCC(=O)N[C@@H](CO)C[C@@H](O)c1cccc(CCCCCC)c1 | HeLa | CERT activity, HPLC-MS/MS lipidomics, measured: lactosylceramide 24:1 | – | 1 µM, 24 h, not cell-number normalised | – | lactosylceramide level | 5500 pmol/sample and 5250 pmol/sample and 7000 pmol/sample
N#Cc1cccc(/C=C/C(=O)c2ccc(O)cc2)c1 | U-87 MG | measured: JHDM1D | – | concentration not given | relative to: untreated | fold change | 34.3
O=C(N/N=C/c1cc[n+](Cc2ccccc2)c2ccccc12)C(=O)N/N=C/c1cc[n+](Cc2ccccc2)c2ccccc12 | MYC parallel G4 DNA | FRET melting | – | 1 µM, DNA 0.2 µM, together with: duplex DNA competitor 10 µM | – | ΔTm | 4.1 ± 0.3 °C
Oc1cccc(-c2cccc(O)n2)n1.[Cl-].[Cl-].[Ru+2].c1ccc(-c2ccnc3c2ccc2c(-c4ccccc4)ccnc23)cc1.c1ccc(-c2ccnc3c2ccc2c(-c4ccccc4)ccnc23)cc1 | MCF-10A | cell viability | – | – | relative to: dark EC50 over light EC50 | phototoxicity index | 130
O=C1CC[C@H](N2Cc3cc(-c4ccn5ncc(Cl)c5n4)ccc3C2=O)C(=O)N1 | MOLM-13 | protein level, TMT proteomics, measured: AAAS | – | 1 µM, 6 h | relative to: DMSO | log2 fold change | 0.0354
CN1CCCNC(=O)c2cccc(c2)C(=O)NCCCN(C)CCCNc2cccc3c2C(=O)c2cccc(c2C3=O)NCCC1 | SAS | RNA-Seq, measured: ZFYVE27 mRNA | – | 5 µM, 24 h | relative to: untreated cells | log2 fold change | -1.89
[Cl-].[Cl-].[Ru+2].c1cc(-c2ccc3cccnc3n2)nc(-c2ccc3cccnc3n2)c1.c1ccc2cc3nc4c5cccnc5c5ncccc5c4nc3cc2c1 | A-375 | – | – | visible light 100 J/cm2 | relative to: dark EC50 over light EC50 | phototherapeutic index | 14
O=C(NCc1cc(F)cc(F)c1)[C@@]1(O)CCN(c2ccc3[nH]ccc3c2)C1=O | PDX-derived bladder tumour cells | colony formation, inhibitor, soft agar clonogenic | – | 8-13 days | – | maximal inhibition | 64%
[177Lu+3].[Cl-].[Cl-].[Cl-] | 4T1 | flow cytometry | – | 0.4 Bq/cell, 24 h | – | dead cells | 20.8%
Cc1cc(Cl)cc(-c2ccnc3cc(CN4C(=O)C5C(C4=O)C5(C)C)sc23)c1C[C@@H]1CNCCO1 (some centres unmarked) | CHP-212 parental (wild-type USP7) | annexin V-PI flow cytometry | – | 0.1 µM, 48 h | – | viable cells (annexin V-/PI-) | 77.3% and 83.9% and 75.4%
CC(C)(C)c1cc(-c2ccc3cc4ccccc4nc3n2)nc(-c2ccc3cc4ccccc4nc3n2)c1.[Cl-].[Cl-].[Ru+2].c1ccc2cc3nc4c5cccnc5c5ncccc5c4nc3cc2c1 | A-375 | resazurin | – | together with: light 523 nm, 20 mW, 100 J/cm2 | – | EC50 | 15.6 µM
COC1CN([C@H]2CC[C@H]([C@@]3(C)Oc4c(Cl)cc(C(=O)NCc5c(SC)cc(C)[nH]c5=O)c(C)c4O3)CC2)C1 | – | RNA-seq, measured: FZD7 | human, whole blood | dose not given, 24 h | relative to: pretreatment baseline | log2 fold change | 1.69
COc1ccc(C([O-])=CC(=O)c2ccc(C(C)(C)C)cc2)cc1.[Ru+2].c1ccc(-c2cccc(-c3ccccn3)n2)nc1.c1cnccn1 | HL-60 | – | – | – | relative to: dark IC50 over light IC50 | phototoxicity index | 5
Cn1ncc2cc(-c3cncc(Cl)c3N3CCC4(CCNC4=O)CC3)ccc21 | LS174T | gene expression, microarray, measured: ANKRD37 mRNA | – | concentration not given, 4 h | relative to: untreated cells | log2 fold change | 1.29
C=C1CC2(C(=O)OC)C=C(C(=O)OC(C)(C)C)C(=O)C1C2 (centres unmarked) | AP-1 reporter HEK293 | AP-1 reporter gene, luciferase reporter | – | 10 µM, 6 h, together with: PMA 6 ng/mL | relative to: PMA alone | luminescence relative to PMA | 0.334
NCC(=O)Nc1ccc(Sc2ccc3c(/C=C/c4ccccn4)n[nH]c3c2)cc1 | Ba/F3 TEL-VEGFR1 | cell growth, CCK-8 | – | – | – | GI50 | 2.29 µM

A few entries again:
Structure (SMILES) | tested on | test | system | setting | scale | quantity | value
COc1ccc(C([O-])=CC(=O)c2ccc(C(C)(C)C)cc2)cc1.[Ru+2].c1ccc(-c2cccc(-c3ccccn3)n2)nc1.c1cnccn1 | HL-60 | – | – | – | relative to: dark IC50 over light IC50 | phototoxicity index | 5
CC(C)(C)c1cc(-c2ccc3cccnc3n2)nc(-c2ccc3cccnc3n2)c1.[Cl-].[Cl-].[Ru+2].c1ccc2cc3nc4c5cccnc5c5ncccc5c4nc3cc2c1 | A-375 | cytotoxicity, resazurin | – | dark | – | EC50 | 13.4 µM
[Cl-].[Cl-].[Ru+2].c1cc(-c2ccc3cccnc3n2)nc(-c2ccc3cccnc3n2)c1.c1ccc2cc3nc4c5cccnc5c5ncccc5c4nc3cc2c1 | A-375 | – | – | visible light 100 J/cm2 | relative to: dark EC50 over light EC50 | phototherapeutic index | 14
COC(=O)c1cc(NC2=NC(=O)C(=Cc3ccc(N(C)C)cc3)S2)ccc1OC(C)=O | MCF7 | GC-MS, measured: Tyrosine | – | 1 µM | relative to: DMSO | metabolite level | -1.48 fold change
